Experimental data collected from several papers.
± marks the error that the study gave. ≈ marks a conversion by molar mass, not a printed value.

SMILES = NC1(C(=O)N[C@@H](CCO)c2ccc(Cl)cc2)CCN(c2nc[nH]c3nccc2-3)CC1; test system = metastatic CRPC patients; conditions = dose not given, grade 3 to 4, treatment-related, all doses, together with: enzalutamide 160 mg daily; measurement = incidence of Diarrhoea; value = 6.7%
SMILES = COCCOc1cnc2ccn([C@H](C)c3nnc4c(F)cc(-c5cnn(C)c5)cn34)c(=O)c2c1; test system = patients, plasma; conditions = oral, 200 mg once daily, day 1; measurement = Cmax; value = 3520 ng/mL
SMILES = C[C@H](CCC(=O)NCCS(=O)(=O)O)[C@H]1CC[C@H]2[C@@H]3CC[C@@H]4C[C@H](O)CC[C@]4(C)[C@H]3C[C@H](O)[C@]12C; test system = human, plasma; conditions = endogenous control diurnal; how to read = relative to: daily mean concentration; measurement = relative peak deviation; value = 213 ± 21%
SMILES = CN(C(=O)n1cnc(-c2cccnc2)c1)C1CCCCC1; test system = Wistar rat, midbrain; conditions = oral, 10 mg/kg/day of BIA 10-2474, 24 h, repeated 5 days; measurement = concentration; value = 8.7 ± 0.1 ng/g
SMILES = CCN1CCN(Cc2ccc(NC(=O)c3ccc(C)c(NC(=O)c4cncc(-c5cccs5)c4)c3)cc2C(F)(F)F)CC1; test system = C57BL/6 mice, epithelial lining fluid; conditions = intraperitoneal, 15 mg/kg; measurement = dose-normalised AUC; value = 0.33 kg·µg·h/mL/mg
SMILES = Cc1c(-c2ccc(N3CCc4cccc(C(=O)Nc5nc6ccccc6s5)c4C3)nc2C(=O)O)cnn1CC12CC3(C)CC(C)(C1)CC(OCCNCC[C@H](O)CO)(C3)C2; test system = anaesthetized male beagle dog; conditions = iv infusion, 0.1 mg/kg/min, 150 min; measurement = plasma concentration; value = < 4 ng/mL
SMILES = CCc1cc(C(=O)NC)c2nccc(N3CCc4c(cc(Cn5ccnc5)cc4-c4cn(C)nc4C(F)(F)F)C3=O)c2c1; test system = Sprague Dawley rats; conditions = oral, 50 mg/kg once daily, 7 days; how to read = relative to: vehicle; measurement = serum ALT change; value = 0.8%
SMILES = CNCc1ccc(-c2[nH]c3cc(F)cc4c3c2CCNC4=O)cc1; test system = human patients; conditions = oral, 600 mg twice daily, grade 4; measurement = dizziness incidence; value = 0%
SMILES = CCOCc1nc(O)c(-c2nnc(Cc3ccc(Cl)cn3)o2)c(O)c1-c1c(OC)cccc1OC; test system = anaesthetized rats, plasma; conditions = intravenous infusion, 10 µg/kg/min for 15 min, 20 min washout; measurement = plasma concentration; value = 982 ± 41 nM
SMILES = NC1(C(=O)N[C@@H](CCO)c2ccc(Cl)cc2)CCN(c2ncnc3[nH]ccc23)CC1; test system = human patients, plasma; conditions = 160 mg twice daily, day 8, continuous dosing; measurement = geometric mean Cmax; value = 653 ng/mL
SMILES = O=C(COc1ccc(N2C(=O)[C@@H]3[C@@H]4C=C[C@@H]([C@H]5C[C@@H]45)[C@@H]3C2=O)cc1)c1cc(Cl)cc(Cl)c1; test system = CD-1 mice, female; conditions = oral, 20 mg/kg, iv 5 mg/kg reference; measurement = oral bioavailability; value = 39%
SMILES = Cc1cc(C)c(CNC(=O)c2cc(Cl)c3c(c2C)O[C@@](C)([C@H]2CC[C@H](N(C)C)CC2)O3)c(=O)[nH]1; test system = relapsed/refractory NHL patients; conditions = oral, 200 mg once daily, onset after cycle 1 day 1; measurement = grade ≥3 adverse event Hypertension; value = 12.5%
SMILES = C[Si](C)(C)O[Si](C)(C)C; measurement = slope B, log KAW vs 1/T; value = -2770
SMILES = NC(CO)(CO)CCc1ccc(Sc2cccc(OCc3ccccc3)c2)cc1Cl; test system = human, supine; conditions = oral, 3 mg, 0 to 24 h, alone; measurement = pulse rate AUEC, mean; value = 1280 h×bpm
SMILES = Cc1cc(NC2CCN(C(=O)OC3CCN(C(=O)/C=C/CN(C)C)C3)CC2)n2ncc(C(C)C)c2n1 (stereo not drawn); assay = Phase I dose escalation CTCAE v4.0, refers to: small intestinal obstruction; test system = patients with advanced solid tumours; conditions = dose not given, QD dosing any grade; measurement = patients with adverse event; value = 7%
SMILES = CCN1/C(=C/C(C)=O)Sc2ccc(F)cc21; test system = cynomolgus monkey; conditions = oral, 100 mg/kg, 2 h post-dose; measurement = systolic blood pressure; value = 110 ± 5 mmHg
SMILES = NS(=O)(=O)c1ccc(-n2nc(C(F)(F)F)cc2-c2ccc(CO)cc2)cc1; test system = Sprague-Dawley rat; conditions = oral, 20 mg/kg of celecoxib, 8 h; measurement = blood-to-plasma ratio; value = 35.1
SMILES = O=C(COc1ccc(Cl)cc1)NC12CC(c3nnc([C@H]4C[C@@H](OC(F)(F)F)C4)o3)(C1)C2; assay = refers to: Tachycardia; test system = healthy humans, both sexes; conditions = oral, dose not given, single ascending dose, fasted; how to read = relative to: subjects; measurement = treatment-emergent adverse events; value = 5.6%
SMILES = Cc1cccc(CNC(=O)c2cn(CCNC(=O)c3ccccc3Sc3c([N+](=O)[O-])ncn3C)c3cc4c(cc3c2=O)OCO4)n1; test system = Beagle dog, whole blood; conditions = 1 µM, 2 h; measurement = remaining compound; value = 67.6%
SMILES = CNC(=O)c1ccc(-c2cnc3ncc(Cc4ccc5ncccc5c4)n3n2)cc1F; assay = refers to: Dyspepsia; test system = cancer patients; conditions = oral, dose not given, dose escalation, grade 3-4; measurement = patients with adverse event; value = 0%
SMILES = N=C(N)NCCNC(=O)C1(Nc2ccccc2)CCN(Cc2ccccc2)CC1; test system = female Sprague-Dawley rats, plasma; conditions = oral, 50 mg/kg; measurement = mean residence time; value = 0.5 ± 0.1 h
SMILES = O=C1CSCCN1c1ccc(CO[C@@H]2COc3nc([N+](=O)[O-])cn3C2)cn1; test system = aqueous buffer; conditions = pH 7.4; measurement = aqueous solubility; value = 27.6 µg/mL (≈ 70.5 µM)
SMILES = CC(C)(C(=O)N1CCOc2c(C#N)cncc2C1)C(F)F; assay = refers to: renal and urinary disorders; test system = human; conditions = oral, 40 mg, CSF pharmacokinetic cohort; measurement = subjects with adverse event; value = 16.7%
SMILES = O=C(O)CCC(=O)O.[2H]C([2H])([2H])Oc1cc(C)c2[nH]ccc2c1CN1CC[C@@H](C2CC2)C[C@H]1c1ccc(C(=O)O)cc1; assay = multiple ascending dose; test system = healthy Chinese subjects; conditions = 200 mg once daily; measurement = subjects with elevated AST TEAE; value = 0%
SMILES = Cc1cc(Nc2ccc(S(F)(F)(F)(F)F)cc2)n2nc(C(C)(F)F)nc2n1; test system = Plasmodium vivax malaria patients; conditions = oral, 600 mg; measurement = adverse event Pyrexia; value = 55.6%
SMILES = C[C@@H](N)c1cc(Cl)ccc1Cn1c(=S)[nH]c(=O)c2[nH]ccc21; test system = human, both sexes, matched healthy controls; conditions = oral, 2.5 mg single dose, geometric mean; measurement = non-renal clearance; value = 120 mL/min
SMILES = OC[C@H]1O[C@@H](c2ccc(Cl)c(Cc3ccc(O[C@H]4CCOC4)cc3)c2)[C@H](O)[C@@H](O)[C@@H]1O; test system = Japanese type 1 diabetes patients, blood; conditions = 2.5 mg, day 28; how to read = relative to: baseline; measurement = change in Chloride; value = 0 mEq/L
SMILES = Cc1ccc([C@@H]2O[C@H](CO)[C@@H](O)[C@H](O)[C@H]2O)cc1Cc1ccc(-c2ccc(F)cc2)s1; test system = Japanese type 2 diabetes patients; conditions = 100 mg, day 2, 24 h urine collection; how to read = relative to: baseline; measurement = urinary calcium excretion change; value = 18.9 mg
SMILES = Cl.[2H]C([2H])([2H])CC(=O)c1cnc(NC(=O)C2CC2)cc1Nc1cccc(-c2ncn(C([2H])([2H])[2H])n2)c1OC; assay = median; test system = human; conditions = oral, 40 mg twice daily, day 1, fed, liquid, multiple dose; measurement = Tmax; value = 2.08 h
SMILES = CC(C)Oc1c(NC(=O)c2ccc(NC(=O)[C@H](CC(N)=O)NC(=O)c3ccc(NC(=O)c4ccc(C#N)cc4)cc3)cc2)ccc(C(=O)N/N=C/c2ccc(C(=O)O)cc2)c1O; assay = absorbance; test system = DMSO; conditions = 50 °C, PSS to ground state relaxation; measurement = thermal half-life; value = 36 min
SMILES = CCCn1cc(C)c2c(=O)[nH]c(-c3cc(S(=O)(=O)N4CCN(CC)CC4)ccc3OCC)nc21; test system = human; conditions = concentration not given, treatment-emergent adverse event; measurement = blood triglycerides increased; value = 16.7%
SMILES = COc1ncc(-c2nc3c(n2C(C)C)[C@H](c2ccc(Cl)cc2)N(c2cc(Cl)cn(C)c2=O)C3=O)c(OC)n1; test system = human patients, plasma; conditions = oral, 150 mg; measurement = geometric mean AUC(0-last); value = 8210 ng·h/mL
SMILES = COc1cccc(OC)c1-c1cc(C(=O)NC2(C(=O)O)C3CC4CC(C3)CC2C4)nn1-c1ccc(C(=O)N(C)CCCN(C)CCCN(C)C(=O)CN2CCN(CC(=O)[O-])CCN(CC(=O)[O-])CCN(CC(=O)[O-])CC2)cc1C(C)C.[177Lu+3] (stereo not drawn); test system = mouse HT-29 xenograft; conditions = 4 h, biodistribution; how to read = relative to: tumour over spleen; measurement = tumour-to-spleen ratio; value = 7.35
SMILES = O=C(Nc1cnccc1Cl)N1CCN(Cc2ccc3c(c2)OC(F)(F)O3)CC1; test system = young men, plasma; conditions = oral, 10 mg once daily, day 10, normalized to 10 mg; measurement = dose-normalized Cmax; value = 78.9 ng/mL
SMILES = O=C(c1cccnc1-c1ccncc1)N1CCC(O)(Cc2ccccc2)CC1; test system = healthy Japanese adults, plasma; conditions = oral, 600 mg single dose; measurement = elimination rate constant; value = 4.44e-05 s⁻¹
SMILES = FC(F)(F)c1ccc(CNc2ccc(Cc3c[nH]c4ncc(Cl)cc34)cn2)cn1; assay = refers to: Diarrhea; test system = patients with advanced solid tumours, all cohorts; conditions = oral, 1000 mg/day, any grade; measurement = treatment-related adverse events; value = 20%
SMILES = N#Cc1cccc(-c2ccc3ncc(-c4cc(F)cc(F)c4)c(N4CCC(N)CC4)c3c2)c1O; test system = human, male, urine and faeces; conditions = oral, 20 mg, 120 h, single dose, mean; how to read = relative to: dose; measurement = total radioactivity recovered; value = 88.1%
SMILES = Cc1ccc(Sc2ccccc2N2CCNCC2)c(C)c1; assay = refers to: Headache; test system = healthy adult men; conditions = oral, 2.5 mg single dose; measurement = participants with TEAE; value = 0%
SMILES = CCO[C@H]1CCN(Cc2c(OC)cc(C)c3[nH]ccc23)[C@H](c2ccc(C(=O)O)cc2)C1; test system = severe hepatic impairment patients; conditions = oral, 200 mg, median; measurement = unbound AUC(0-12); value = 9760 ng·h/mL

A few entries again:
SMILES = C[C@@H](N)c1cc(Cl)ccc1Cn1c(=S)[nH]c(=O)c2[nH]ccc21; test system = human, both sexes, matched healthy controls; conditions = oral, 2.5 mg single dose, geometric mean; measurement = non-renal clearance; value = 120 mL/min
SMILES = OC[C@H]1O[C@@H](c2ccc(Cl)c(Cc3ccc(O[C@H]4CCOC4)cc3)c2)[C@H](O)[C@@H](O)[C@@H]1O; test system = Japanese type 1 diabetes patients, blood; conditions = 2.5 mg, day 28; how to read = relative to: baseline; measurement = change in Chloride; value = 0 mEq/L
SMILES = Cc1ccc([C@@H]2O[C@H](CO)[C@@H](O)[C@H](O)[C@H]2O)cc1Cc1ccc(-c2ccc(F)cc2)s1; test system = Japanese type 2 diabetes patients; conditions = 100 mg, day 2, 24 h urine collection; how to read = relative to: baseline; measurement = urinary calcium excretion change; value = 18.9 mg
